{"data": "Measurements collected from several papers", "UCHL1": "Ubiquitin carboxyl-terminal hydrolase isozyme L1 (UCHL1, Homo sapiens, UniProt P09936)", "note": "Lines come from different studies, so protocols differ. ± marks the error that the study gave.", "UniProt P09936, sequence (whole entry, looked up)": "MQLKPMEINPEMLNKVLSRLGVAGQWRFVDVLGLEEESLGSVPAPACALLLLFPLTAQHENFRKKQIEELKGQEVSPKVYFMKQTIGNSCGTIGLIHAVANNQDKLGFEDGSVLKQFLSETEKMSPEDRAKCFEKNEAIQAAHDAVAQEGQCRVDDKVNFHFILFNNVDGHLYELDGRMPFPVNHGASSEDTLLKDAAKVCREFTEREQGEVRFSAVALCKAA"}
{"Compound": "COc1cc(-c2oc3cc(O)cc(O)c3c(=O)c2O[C@@H]2O[C@H](CO)[C@@H](O)[C@H](O)[C@H]2O)ccc1O", "tested on": "HepG2", "test": "CellTiter-Glo", "measurement": "highest non-cytotoxic concentration", "result": "> 200 µM"}
{"Compound": "CCN1CCN(Cc2ccc(Nc3nc4cc(Oc5ccnc(NC(=O)C6CCN(C)CC6)c5)ccc4n3C)cc2C(F)(F)F)CC1", "tested on": "HepG2", "test": "cytotoxicity", "conditions": "48 h", "measurement": "EC50", "result": "12.1 ± 1.5 µM"}
{"Compound": "Nc1nccc(-c2c(-c3ccc(F)cc3)ncn2C2CCNCC2)n1", "tested on": "HepG2", "test": "cytotoxicity", "conditions": "PKIS HTS", "measurement": "pTC50", "result": "< 4"}
{"Compound": "CC(C(=O)Nc1cc(Cl)ccc1Cl)N1CCC(C(=O)NCc2ccccc2)CC1 (stereo not shown)", "tested on": "HepG2", "test": "cytotoxicity, CellTiter-Glo", "conditions": "3 days", "measurement": "IC50", "result": "> 56 µM"}
{"Compound": "N#C[C@@]12C[C@@H]1[C@@H](n1cnc3c(N[C@@H](C4CCC4)C4CC4)nc(I)nc31)[C@H](O)[C@@H]2O", "tested on": "HepG2", "test": "cytotoxicity", "measurement": "IC50", "result": "17.2 µM"}
{"Compound": "O=C1C[C@@H](c2ccc(O)cc2)Oc2cc(O)cc(O)c21", "tested on": "HepG2", "test": "viability, CellTiter-Glo", "measurement": "highest non-cytotoxic concentration", "result": "> 200 µM"}
{"Compound": "CCS(=O)(=O)Nc1ccc(C(=O)NC2CC3CCC2C3)cc1 (stereo not shown)", "tested on": "HepG2", "test": "cytotoxicity, CellTiter-Glo", "conditions": "3 days", "measurement": "IC50", "result": "> 56 µM"}
{"Compound": "O=C(Nc1ccc2c(c1)OC(F)(F)O2)Nc1ccc(Cl)c(C(F)(F)F)c1", "tested on": "HepG2", "conditions": "24 h", "measurement": "CC50", "result": "10.5 µM"}
{"Compound": "Cc1ccc(NC(=O)N2CCN(c3ccccc3F)CC2)c(C)c1", "tested on": "HepG2", "test": "cytotoxicity, CellTiter-Glo", "conditions": "3 days", "measurement": "IC50", "result": "> 56 µM"}
{"Compound": "CC(=O)Oc1ccccc1C(=O)O", "tested on": "HepG2", "test": "ATPlite", "conditions": "18 to 24 h, added: deferoxamine", "measurement": "CC50", "result": "> 1000 µM"}
{"Compound": "[131I-].[Na+]", "tested on": "HepG2", "conditions": "7 µCi/well, 24 h", "measurement": "cell retention", "result": "1.26 ± 0.35%"}
{"Compound": "COc1ccc(Nc2cnnc3cc(-c4ccc(S(=O)(=O)N5CCN(C)CC5)cc4)ccc23)cc1Cl", "tested on": "HepG2", "test": "cytotoxicity", "measurement": "TC50", "result": "> 1.9 µM"}
{"Compound": "CSc1cccc(NC(=O)CCc2c(C)nc3c4cccnc4nn3c2C)c1", "tested on": "HepG2", "test": "cytotoxicity, CellTiter-Glo", "conditions": "3 days", "measurement": "IC50", "result": "> 56 µM"}
{"Compound": "CN1CCC(C(=O)Nc2n[nH]c3nc(-c4ccc(O)cc4)c(Br)cc23)CC1.O=C(O)/C=C\\C(=O)O", "tested on": "HepG2", "test": "cytotoxicity", "conditions": "PKIS HTS", "measurement": "pTC50", "result": 5.5}
{"Compound": "CCN1CCN(Cc2ccc(Nc3nc4ccc(Oc5ccnc(NC(C)=O)c5)c(C)c4n3C)cc2C(F)(F)F)CC1", "tested on": "HepG2", "test": "cytotoxicity", "conditions": "48 h", "measurement": "EC50", "result": "4.5 ± 0.2 µM"}
{"Compound": "CCCCCCNc1nc(NC2CCN(C)CC2)c2cc(OC)c(OC)cc2n1", "tested on": "HepG2", "conditions": "72 h", "how to read": "relative to: HepG2 CC50 over EC50", "measurement": "selectivity index", "result": 1}
{"Compound": "CCN1CCN(Cc2ccc(Nc3nc4cc(Oc5ccnc(NC(C)=O)c5)ccc4n3C)cc2C(F)(F)F)CC1", "tested on": "HepG2", "test": "cytotoxicity", "conditions": "48 h", "measurement": "EC50", "result": "7.7 ± 0.3 µM"}
{"Compound": "CC(Cl)C(=O)NCc1cccc(N2C(=O)NC3(CCCC3)C2=O)c1 (stereo not shown)", "tested on": "UCHL1", "test": "covalent, intact protein LC-MS", "conditions": "12.5 µM", "measurement": "labelling", "result": "9.72%"}
{"Compound": "CCN1CCN(Cc2ccc(Nc3nc4ccc(Oc5ccnc(NC(=O)C6CCN(C)CC6)c5)cc4[nH]3)cc2C(F)(F)F)CC1", "tested on": "HepG2", "test": "cytotoxicity", "conditions": "48 h", "measurement": "EC50", "result": "8.4 ± 1.2 µM"}
{"Compound": "COc1cnc(Nc2cnnc3ccc(-c4ccc(N5CCN(C)CC5)cc4)cc23)nc1", "tested on": "HepG2", "test": "cytotoxicity", "measurement": "TC50", "result": "> 4.7 µM"}
{"Compound": "CCN1CCN(Cc2ccc(Nc3nc4cnc(Oc5ccnc(NC(C)=O)c5)nc4n3C)cc2C(F)(F)F)CC1", "tested on": "HepG2", "test": "cytotoxicity", "conditions": "48 h", "measurement": "EC50", "result": "6 ± 1 µM"}
{"Compound": "Fc1ccc2[nH]c(Cc3c[nH]c4c(F)cccc34)cc2c1", "tested on": "HepG2", "conditions": "up to 50 µM", "measurement": "cytotoxicity", "result": "not toxic"}
{"Compound": "O=C(Cn1ccnc1[N+](=O)[O-])NCc1ccccc1", "tested on": "HepG2", "test": "Alamar Blue", "conditions": "48 h", "measurement": "TC50", "result": "> 200 µM"}
{"Compound": "CC(=O)[C@]1(O)Cc2c(O)c3c(c(O)c2[C@@H](O[C@H]2C[C@H](N)[C@H](O)[C@H](C)O2)C1)C(=O)c1ccccc1C3=O", "tested on": "HepG2", "conditions": "72 h", "how to read": "relative to: HepG2 CC50 over EC50", "measurement": "selectivity index", "result": 1}
{"Compound": "CCOCC(=O)N1CCC[C@H](C(=O)NCc2nc(-c3ccc(C#N)cc3)cs2)C1", "tested on": "HepG2", "test": "CellTiter-Glo", "conditions": "96 h", "measurement": "CC50", "result": "> 50 µM"}
{"Compound": "O=[N+]([O-])c1ccc2[nH]c(CNCC34CC5CC(CC(C5)C3)C4)nc2c1", "tested on": "HepG2", "measurement": "CC50", "result": "42 ± 4.8 µg/mL"}
{"Compound": "CCN1CCN(Cc2ccc(Nc3nc4ccc(Oc5ccnc(N)c5)cc4n3C)cc2C(F)(F)F)CC1", "tested on": "HepG2", "test": "cytotoxicity", "conditions": "48 h", "measurement": "EC50", "result": "5.5 ± 0.3 µM"}
{"Compound": "Cc1ccc(Nc2cnnc3ccc(-c4ccc(N5CCN(C)CC5)cc4)cc23)cn1", "tested on": "HepG2", "test": "cytotoxicity", "measurement": "TC50", "result": "> 24 µM"}
{"Compound": "CC[C@@H]1/C=C(\\C)C[C@H](C)C[C@H](OC)[C@H]2O[C@@](O)(C(=O)C(=O)N3CCCC[C@H]3C(=O)O[C@H](/C(C)=C/[C@@H]3CC[C@H](Cl)[C@H](OC)C3)[C@H](C)[C@@H](O)CC1=O)[C@H](C)C[C@@H]2OC", "tested on": "HepG2", "test": "Alamar Blue", "conditions": "48 h", "measurement": "TC50", "result": "> 400 µM"}
{"Compound": "CN1CCN(c2ncc(-c3ccc4nncc(Nc5ncc(Cl)cn5)c4c3)cn2)CC1", "tested on": "HepG2", "test": "cytotoxicity", "measurement": "TC50", "result": "> 4.7 µM"}
{"Compound": "O=C1c2ccccc2C(=O)c2c(NCCc3ccc(O)cc3)ccc(NCCc3ccc(O)cc3)c21", "tested on": "HepG2", "conditions": "72 h", "how to read": "relative to: HepG2 CC50 over EC50", "measurement": "selectivity index", "result": 4}
{"Compound": "CC(=O)Nc1cc(Oc2ccc3nc(Nc4ccc(F)cc4F)n(C)c3c2)ccn1", "tested on": "HepG2", "test": "cytotoxicity", "conditions": "48 h", "measurement": "EC50", "result": "> 20 µM"}
{"Compound": "Cc1ccc(Nc2cnnc3ccc(-c4ccc(N5CCCN(C)CC5)cc4)cc23)cn1", "tested on": "HepG2", "test": "cytotoxicity", "measurement": "TC50", "result": "> 24 µM"}
{"Compound": "COC(=O)C(C#N)=Cc1cccc(F)c1", "tested on": "UCHL1", "test": "covalent, intact protein LC-MS", "conditions": "12.5 µM", "measurement": "labelling", "result": "15.6%"}
{"note": "Excerpt of the above:"}
{"Compound": "CCS(=O)(=O)Nc1ccc(C(=O)NC2CC3CCC2C3)cc1 (stereo not shown)", "tested on": "HepG2", "test": "cytotoxicity, CellTiter-Glo", "conditions": "3 days", "measurement": "IC50", "result": "> 56 µM"}
{"Compound": "O=C(Nc1ccc2c(c1)OC(F)(F)O2)Nc1ccc(Cl)c(C(F)(F)F)c1", "tested on": "HepG2", "conditions": "24 h", "measurement": "CC50", "result": "10.5 µM"}
{"Compound": "Cc1ccc(NC(=O)N2CCN(c3ccccc3F)CC2)c(C)c1", "tested on": "HepG2", "test": "cytotoxicity, CellTiter-Glo", "conditions": "3 days", "measurement": "IC50", "result": "> 56 µM"}
{"Compound": "CC(=O)Oc1ccccc1C(=O)O", "tested on": "HepG2", "test": "ATPlite", "conditions": "18 to 24 h, added: deferoxamine", "measurement": "CC50", "result": "> 1000 µM"}
{"Compound": "[131I-].[Na+]", "tested on": "HepG2", "conditions": "7 µCi/well, 24 h", "measurement": "cell retention", "result": "1.26 ± 0.35%"}
